Published values gathered from unrelated publications.
A part holds a random share of what one study measured. “And” joins repeats or separate records; there may be more than shown.
Sequence of UniProt Q99720 (whole entry, looked up): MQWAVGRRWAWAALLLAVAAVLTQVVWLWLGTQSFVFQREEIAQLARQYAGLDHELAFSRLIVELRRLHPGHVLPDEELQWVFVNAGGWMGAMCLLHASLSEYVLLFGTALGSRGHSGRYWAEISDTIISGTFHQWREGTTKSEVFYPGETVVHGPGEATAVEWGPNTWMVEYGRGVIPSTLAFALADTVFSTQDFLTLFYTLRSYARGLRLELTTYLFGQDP
Sequence of UniProt P50406 (whole entry, looked up): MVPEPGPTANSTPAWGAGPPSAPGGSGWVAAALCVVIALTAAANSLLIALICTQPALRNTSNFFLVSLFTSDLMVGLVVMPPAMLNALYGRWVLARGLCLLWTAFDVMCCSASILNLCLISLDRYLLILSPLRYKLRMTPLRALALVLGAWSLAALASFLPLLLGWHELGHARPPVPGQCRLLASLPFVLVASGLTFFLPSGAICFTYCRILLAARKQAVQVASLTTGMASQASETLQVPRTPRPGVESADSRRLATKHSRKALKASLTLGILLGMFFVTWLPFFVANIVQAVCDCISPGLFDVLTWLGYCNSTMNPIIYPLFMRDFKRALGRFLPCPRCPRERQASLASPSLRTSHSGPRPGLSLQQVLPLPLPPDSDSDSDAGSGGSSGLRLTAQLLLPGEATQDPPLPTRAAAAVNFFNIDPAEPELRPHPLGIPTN
Sequence of UniProt P35368 (whole entry, looked up): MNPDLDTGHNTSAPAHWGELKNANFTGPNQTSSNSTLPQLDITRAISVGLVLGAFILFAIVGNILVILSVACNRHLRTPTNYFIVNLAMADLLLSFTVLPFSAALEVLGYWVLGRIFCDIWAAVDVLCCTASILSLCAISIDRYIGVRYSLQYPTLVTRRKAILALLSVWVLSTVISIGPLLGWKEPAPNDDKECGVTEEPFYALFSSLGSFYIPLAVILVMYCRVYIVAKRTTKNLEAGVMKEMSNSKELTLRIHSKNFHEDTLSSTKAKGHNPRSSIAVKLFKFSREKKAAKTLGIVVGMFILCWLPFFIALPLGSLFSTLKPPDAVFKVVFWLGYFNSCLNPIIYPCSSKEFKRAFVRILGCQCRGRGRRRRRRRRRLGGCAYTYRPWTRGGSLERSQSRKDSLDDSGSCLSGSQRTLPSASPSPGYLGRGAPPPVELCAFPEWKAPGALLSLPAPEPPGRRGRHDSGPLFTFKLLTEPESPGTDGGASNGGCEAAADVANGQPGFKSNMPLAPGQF
Sequence of UniProt P34969 (whole entry, looked up): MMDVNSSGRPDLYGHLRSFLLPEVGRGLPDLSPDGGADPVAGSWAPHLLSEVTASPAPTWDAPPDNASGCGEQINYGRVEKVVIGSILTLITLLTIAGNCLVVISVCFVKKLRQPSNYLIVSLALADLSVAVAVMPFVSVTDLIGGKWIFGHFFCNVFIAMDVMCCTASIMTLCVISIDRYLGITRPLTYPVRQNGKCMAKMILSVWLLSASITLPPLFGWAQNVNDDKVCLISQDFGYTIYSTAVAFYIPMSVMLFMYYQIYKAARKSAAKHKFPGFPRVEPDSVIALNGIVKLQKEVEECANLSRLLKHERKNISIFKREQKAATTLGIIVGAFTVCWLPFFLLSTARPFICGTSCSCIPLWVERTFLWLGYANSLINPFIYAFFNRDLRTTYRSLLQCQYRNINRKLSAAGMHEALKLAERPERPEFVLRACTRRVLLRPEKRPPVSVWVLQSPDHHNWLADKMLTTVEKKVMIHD

Sample 1
Structure (SMILES): CCS(=O)(=O)c1cc2cc(C[C@](O)(CC(C)(C)c3ccc(F)cc3C(N)=O)C(F)(F)F)[nH]c2cn1
Effect on: ligand displacement
Concentration: 10 µM
Measurement: inhibition
Histamine H4 receptor (HRH4, Homo sapiens, UniProt Q9H3N8): 3.88%
5-hydroxytryptamine receptor 7 (HTR7, Homo sapiens, UniProt P34969): 4.98%
Muscarinic acetylcholine receptor M2 (CHRM2, Homo sapiens, UniProt P08172): -0.48%
Alpha-1B adrenergic receptor (ADRA1B, Homo sapiens, UniProt P35368): 3.39%
5-hydroxytryptamine receptor 6 (HTR6, Homo sapiens, UniProt P50406): -3.78%
Alpha-2A adrenergic receptor (ADRA2A, Homo sapiens, UniProt P08913): -4.94%
Sigma intracellular receptor 2 (TMEM97, Homo sapiens, UniProt Q5BJF2): 9.04%
Histamine H1 receptor (HRH1, Homo sapiens, UniProt P35367): 4.27%
Alpha-1D adrenergic receptor (ADRA1D, Homo sapiens, UniProt P25100): -22.1%
Muscarinic acetylcholine receptor M5 (CHRM5, Homo sapiens, UniProt P08912): 1.86%
D(4) dopamine receptor (DRD4, Homo sapiens, UniProt P21917): -7.41%
Beta-2 adrenergic receptor (ADRB2, Homo sapiens, UniProt P07550): 4.71%
Sigma non-opioid intracellular receptor 1 (SIGMAR1, Homo sapiens, UniProt Q99720): 10.1%
Alpha-2C adrenergic receptor (ADRA2C, Homo sapiens, UniProt P18825): -1.88%

Sample 2
Target: BDNF/NT-3 growth factors receptor (NTRK2, Homo sapiens, UniProt Q16620)
Sequence of UniProt Q16620 (whole entry, looked up): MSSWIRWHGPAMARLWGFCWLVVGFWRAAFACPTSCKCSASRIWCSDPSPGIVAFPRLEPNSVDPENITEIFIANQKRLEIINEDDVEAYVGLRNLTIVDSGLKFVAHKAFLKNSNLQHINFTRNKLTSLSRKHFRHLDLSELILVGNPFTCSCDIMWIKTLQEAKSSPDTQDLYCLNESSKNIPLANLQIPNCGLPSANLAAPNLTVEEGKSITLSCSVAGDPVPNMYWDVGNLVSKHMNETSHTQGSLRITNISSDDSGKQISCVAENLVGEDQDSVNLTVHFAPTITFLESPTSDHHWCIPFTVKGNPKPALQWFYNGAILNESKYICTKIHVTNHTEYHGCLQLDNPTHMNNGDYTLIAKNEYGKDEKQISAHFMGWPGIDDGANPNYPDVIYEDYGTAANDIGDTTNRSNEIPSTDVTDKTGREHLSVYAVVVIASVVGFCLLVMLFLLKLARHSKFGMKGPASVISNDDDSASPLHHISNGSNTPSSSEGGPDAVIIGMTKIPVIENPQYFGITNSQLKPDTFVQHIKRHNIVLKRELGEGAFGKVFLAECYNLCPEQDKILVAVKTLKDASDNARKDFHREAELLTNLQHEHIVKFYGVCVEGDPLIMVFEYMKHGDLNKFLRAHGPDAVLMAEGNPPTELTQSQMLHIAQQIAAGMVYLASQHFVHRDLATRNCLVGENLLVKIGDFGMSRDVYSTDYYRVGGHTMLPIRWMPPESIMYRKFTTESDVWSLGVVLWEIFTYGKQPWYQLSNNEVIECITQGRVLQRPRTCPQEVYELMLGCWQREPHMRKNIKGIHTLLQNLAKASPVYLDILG
Effect on: enzyme activity
Mode: inhibitor
Concentration: 0.5 µM
Relative to: control
Measurement: remaining activity
Oc1ccc(Nc2nc(-c3ccc(Cl)cc3)cs2)cc1: 107%
Cc1cc(Nc2nc(-c3ccccc3)nc3ccccc23)n[nH]1: 4.37%
Fc1ccc(-c2nc3n(c2-c2ccncc2)CCS3)cc1: 103%
Cc1cncc2cccc(S(=O)(=O)N3CCCN(C(=O)CN)C[C@@H]3C)c12: 102%
CC#CC(=O)Nc1cc2c(Nc3ccc(F)c(Cl)c3)ncnc2cn1: 100%
O=C1Cc2c([nH]c3ccc([N+](=O)[O-])cc23)-c2ccccc2N1: 86.1%
N#CC(=C(N)Sc1ccc(N)cc1)c1ccccc1C(F)(F)F: 103%
Nc1nc(Nc2ccc(S(N)(=O)=O)cc2)nn1C(=O)c1c(F)cccc1F: 42.8%
CC[n+]1c(/C=C/N(C)c2ccccc2)n(-c2ccccc2)c2ccc(-c3nc4ccccc4s3)cc21: 97.8%
CCCC(=O)Oc1ccc2[nH]c(C(=O)c3cc4ccccc4[nH]3)cc2c1: 89.8%
Cc1ccc(NC2=CC(=O)c3sc(C)nc3C2=O)cc1: 100%
COc1ccc(S(=O)(=O)N(CCO)c2ccccc2CN(C)CC=Cc2ccc(Cl)cc2)cc1: 104%
COc1cc(Nc2c(C#N)cnc3cc(OCCCN4CCN(C)CC4)c(OC)cc23)c(Cl)cc1Cl: 69.2%
Nc1nccc(-c2c(-c3ccc(F)cc3)ncn2C2CCNCC2)n1: 103%
O=C1NC(=O)C(c2c[nH]c3ccccc23)=C1c1c[nH]c2ccccc12: 90.7%
NC(=O)c1ccc(N(C(N)=O)c2c(F)cccc2F)nc1-c1ccc(F)cc1F: 102%
Nc1ncnc2c1cnn2-c1ccccc1: 88.7%
CC(C)(C)n1nc(Cc2cccc3ccccc23)c2c(N)ncnc21: 87.2%
CCc1[nH]c(-c2ccc(OC)cc2)nc1-c1ccncc1: 105%
CC(=O)c1ccc(N2CCOCC2)cc1O: 92.1%
CSc1nc(-c2ccnc(N[C@@H](C)c3ccccc3)c2)c(-c2ccc(F)cc2)[nH]1 (racemic): 88.5%
O=S(=O)(NCCNC/C=C/c1ccc(Br)cc1)c1cccc2cnccc12: 95.1%

Sample 3
Target: DNA polymerase theta, helicase domain (POLQ, Homo sapiens, UniProt O75417)
Sequence of UniProt O75417 (whole entry, looked up): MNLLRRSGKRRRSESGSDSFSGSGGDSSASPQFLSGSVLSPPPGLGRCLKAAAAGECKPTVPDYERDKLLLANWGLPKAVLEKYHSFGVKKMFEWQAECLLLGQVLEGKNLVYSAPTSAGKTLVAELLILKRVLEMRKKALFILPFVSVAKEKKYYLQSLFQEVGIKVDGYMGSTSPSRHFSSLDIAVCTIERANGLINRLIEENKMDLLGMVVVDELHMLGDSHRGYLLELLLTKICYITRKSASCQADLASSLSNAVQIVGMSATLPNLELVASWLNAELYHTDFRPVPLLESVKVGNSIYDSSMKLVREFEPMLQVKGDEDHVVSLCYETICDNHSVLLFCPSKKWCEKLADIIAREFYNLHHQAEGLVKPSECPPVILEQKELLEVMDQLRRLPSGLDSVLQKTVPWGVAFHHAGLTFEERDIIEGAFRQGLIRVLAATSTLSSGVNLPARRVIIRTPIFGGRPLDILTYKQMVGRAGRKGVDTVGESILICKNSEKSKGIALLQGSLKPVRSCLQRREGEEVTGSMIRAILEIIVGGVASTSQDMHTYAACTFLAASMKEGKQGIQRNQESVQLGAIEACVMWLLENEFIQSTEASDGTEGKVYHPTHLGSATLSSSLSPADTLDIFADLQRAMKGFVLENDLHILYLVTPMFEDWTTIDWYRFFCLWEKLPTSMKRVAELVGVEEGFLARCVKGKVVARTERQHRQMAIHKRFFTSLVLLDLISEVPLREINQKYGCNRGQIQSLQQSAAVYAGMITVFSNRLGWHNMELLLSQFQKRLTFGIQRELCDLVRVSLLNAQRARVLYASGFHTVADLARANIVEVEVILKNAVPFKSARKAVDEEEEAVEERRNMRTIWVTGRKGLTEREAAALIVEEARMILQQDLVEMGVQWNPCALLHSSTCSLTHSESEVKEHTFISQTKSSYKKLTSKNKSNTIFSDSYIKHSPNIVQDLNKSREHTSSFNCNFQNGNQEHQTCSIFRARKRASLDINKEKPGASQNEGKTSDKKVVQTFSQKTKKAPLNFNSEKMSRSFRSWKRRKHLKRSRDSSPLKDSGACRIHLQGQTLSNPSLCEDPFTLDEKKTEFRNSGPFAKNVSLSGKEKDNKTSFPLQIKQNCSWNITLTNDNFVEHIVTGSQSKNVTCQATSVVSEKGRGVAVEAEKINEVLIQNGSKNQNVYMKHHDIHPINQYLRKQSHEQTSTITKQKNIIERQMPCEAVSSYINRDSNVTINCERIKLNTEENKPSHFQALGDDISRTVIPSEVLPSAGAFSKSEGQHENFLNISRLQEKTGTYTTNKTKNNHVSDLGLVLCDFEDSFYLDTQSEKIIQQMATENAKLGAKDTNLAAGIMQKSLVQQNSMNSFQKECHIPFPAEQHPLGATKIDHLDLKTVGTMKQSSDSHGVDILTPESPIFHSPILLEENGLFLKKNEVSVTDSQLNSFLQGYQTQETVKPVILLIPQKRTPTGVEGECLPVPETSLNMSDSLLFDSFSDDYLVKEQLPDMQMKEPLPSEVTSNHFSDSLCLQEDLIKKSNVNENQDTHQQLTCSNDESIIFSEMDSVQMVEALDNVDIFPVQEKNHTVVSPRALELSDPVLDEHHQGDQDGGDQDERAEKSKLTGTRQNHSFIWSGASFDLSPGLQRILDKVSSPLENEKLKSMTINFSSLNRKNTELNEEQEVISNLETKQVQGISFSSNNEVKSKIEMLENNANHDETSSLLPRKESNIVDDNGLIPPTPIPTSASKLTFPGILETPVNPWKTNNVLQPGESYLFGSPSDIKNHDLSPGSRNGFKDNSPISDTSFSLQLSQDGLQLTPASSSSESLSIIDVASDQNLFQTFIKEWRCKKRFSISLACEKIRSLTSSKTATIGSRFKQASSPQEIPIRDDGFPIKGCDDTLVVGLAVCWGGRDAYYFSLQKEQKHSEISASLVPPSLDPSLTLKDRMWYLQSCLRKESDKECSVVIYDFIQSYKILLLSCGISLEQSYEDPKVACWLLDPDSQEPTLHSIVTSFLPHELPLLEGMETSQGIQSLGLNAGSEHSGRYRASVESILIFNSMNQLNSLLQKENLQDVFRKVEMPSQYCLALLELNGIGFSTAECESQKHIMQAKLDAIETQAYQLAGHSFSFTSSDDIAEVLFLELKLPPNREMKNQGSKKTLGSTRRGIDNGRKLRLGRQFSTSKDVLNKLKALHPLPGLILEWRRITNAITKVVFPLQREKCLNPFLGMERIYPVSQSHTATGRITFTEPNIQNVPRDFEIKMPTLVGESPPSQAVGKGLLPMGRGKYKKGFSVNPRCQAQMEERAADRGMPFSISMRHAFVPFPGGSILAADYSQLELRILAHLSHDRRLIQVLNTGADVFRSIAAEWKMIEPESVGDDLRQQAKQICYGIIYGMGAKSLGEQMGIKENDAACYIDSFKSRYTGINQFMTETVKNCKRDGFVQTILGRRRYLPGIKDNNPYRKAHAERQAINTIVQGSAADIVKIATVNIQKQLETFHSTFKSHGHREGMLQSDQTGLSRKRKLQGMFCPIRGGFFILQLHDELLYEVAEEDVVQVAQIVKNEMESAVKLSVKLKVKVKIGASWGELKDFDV
Mode: inhibitor
Concentration: concentration not given
Added: with ssDNA
Measurement: remaining activity
CCCCCCCC/C=C\CCCCCCCC(=O)O: 103% and 97.3%
O=C(Nc1ccccc1C(=O)O)c1cccc(S(=O)(=O)N2CCCC2)c1: 57.3% and 55.3%
Cc1ccc(C(=O)Nc2ccccc2C(=O)O)cc1S(=O)(=O)N1CCCCCC1: 71.5% and 66%
CCCCCCCCCCCCc1ccc(S(=O)(=O)Nc2nncs2)cc1: 99.9% and 105%
CC1=Nc2cc(C(=O)NCCc3ccc(Cl)cc3)ccc2Sc2ccc(C)cc21: 65% and 64.7%
Cc1c(Cl)cccc1NC(=O)CSc1ncc(S(=O)(=O)c2ccc(C(C)C)cc2)c(=O)[nH]1: 70.3% and 68.2%
COC(=O)[C@]12CCC(C)(C)C[C@H]1[C@H]1C(=O)C=C3[C@@]4(C)C=C(C#N)C(=O)C(C)(C)[C@@H]4CC[C@@]3(C)[C@]1(C)CC2: 42.9% and 41%
CC[N+](C)(CC)CCC[n+]1c(-c2ccccc2)c2cc(N)ccc2c2ccc(N)cc21: 40.6% and 42.4%

Sample 4
Cell line: mouse MPNST tumor cells
Method: high-content nuclear imaging
Measured: cell number
Concentration: 10 µM
Time: 12 h
Setting: mean of 2 replicates
Relative to: plate mean
Reading: higher = more cells
Measurement: nuclei count
O=c1c(-c2ccc(O)cc2)coc2cc(O)cc(O)c12: -0.344 z-score
CC(Oc1c(Cl)cccc1Cl)C1=NCCN1 (centres unmarked): 0.00886 z-score
NC(=O)OCC(O)COc1ccc(Cl)cc1 (centres unmarked): 0.647 z-score
C[C@H]1O[C@@H](O[C@H]2[C@@H](O)C[C@H](O[C@H]3[C@@H](O)C[C@H](O[C@H]4CC[C@@]5(C)[C@H](CC[C@@H]6[C@@H]5C[C@@H](O)[C@]5(C)[C@@H](C7=CC(=O)OC7)CC[C@]65O)C4)O[C@@H]3C)O[C@@H]2C)C[C@H](O)[C@@H]1O: 1.28 z-score
CC1COc2c(N3CCN(C)CC3)c(F)cc3c(=O)c(C(=O)O)cn1c23 (centres unmarked): -0.0154 z-score
C#CCN[C@@H]1CCc2ccccc21: 0.924 z-score and 0.49 z-score
COc1cc2nc(N3CCC(N4CCCCC4)CC3)nc(NC3CCCCCC3)c2cc1OC: -6.58 z-score
COc1ccc(CCNCc2ccc(OCc3ccc(Cl)nc3)c(OC)c2)cc1OC: 2.67 z-score
N#C[C@H](Cc1ccc(O)cc1)c1ccc(O)cc1: 1.17 z-score
Nc1ccccc1Oc1ccc2c(N)nsc2c1: -5.15 z-score
O=C(O)[C@H](Cc1ccc(OC(=O)N2CCCC2)cc1)NC(=O)[C@@H]1CCCN1S(=O)(=O)c1ccccc1: -1.61 z-score
O=C(COc1ccc(C(=O)c2ccccc2)cc1)NC1CCN(Cc2ccccc2)CC1: 2.53 z-score
CC(C)(C)n1nc(-c2ccc(Cl)cc2)c2c(N)ncnc21: -0.495 z-score
O=C(Nc1cccnn1)N1CCC(=Cc2cccc(Oc3ccc(C(F)(F)F)cn3)c2)CC1: -0.116 z-score
Cc1cccc(Oc2cnc(=O)[nH]c2)c1: 0.298 z-score
Cc1cc(C)nc(SCC(=O)Nc2ncc(Cc3cccc4ccccc34)s2)n1: 1.27 z-score
CCCCOc1ccc(C(=O)CCN2CCCCC2)cc1: -0.693 z-score
Cc1nc2sccn2c(=O)c1CCN1CCC(=C(c2ccccc2)c2ccc(F)cc2)CC1: 1.91 z-score
